Published values gathered from unrelated publications.
Each numbered part is a random draw from the data of one study; scales do not carry over between parts. Positions count from the first letter of the parent shown.

Block 1
Target: ABI1, truncated, D143A, DHFR fusion (Arabidopsis thaliana)
Method: DHFR PCA, deep sequencing
Medium: yeast
Setting: methotrexate growth selection, single substitutions
Added: (+)-ABA 4.8 µM
Reference: wild-type fitted maximum
Direction: higher = stronger binding
Starting sequence: PYL1, truncated, DHFR fusion (Arabidopsis thaliana); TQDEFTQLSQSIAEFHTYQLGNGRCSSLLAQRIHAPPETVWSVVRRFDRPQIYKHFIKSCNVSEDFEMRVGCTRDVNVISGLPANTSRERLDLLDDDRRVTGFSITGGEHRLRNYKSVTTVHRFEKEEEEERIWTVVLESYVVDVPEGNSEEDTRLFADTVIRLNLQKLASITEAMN; partner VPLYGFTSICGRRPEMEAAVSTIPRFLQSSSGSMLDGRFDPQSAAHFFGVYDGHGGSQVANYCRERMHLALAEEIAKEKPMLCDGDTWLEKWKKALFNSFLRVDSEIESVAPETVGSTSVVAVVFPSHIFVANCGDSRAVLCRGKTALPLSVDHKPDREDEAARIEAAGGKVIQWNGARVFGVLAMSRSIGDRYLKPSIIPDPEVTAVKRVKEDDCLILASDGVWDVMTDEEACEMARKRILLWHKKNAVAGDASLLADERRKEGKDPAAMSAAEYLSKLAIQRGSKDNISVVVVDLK
For `R132T`, “relative binding score” read 93.6%.
`S11L`: “relative binding score” 48.9%.
Under “relative binding score”, `E38F` is recorded as -1.04%.
`Q167S`: “relative binding score” 77.9%.
Under “relative binding score”, `T119S` is recorded as 0.276%.

Block 2
Target: Centromere-binding protein 1, full length, N-terminal tag (CBF1, Saccharomyces cerevisiae, UniProt P17106, residues 1-351)
UniProt P17106, sequence (whole entry, looked up): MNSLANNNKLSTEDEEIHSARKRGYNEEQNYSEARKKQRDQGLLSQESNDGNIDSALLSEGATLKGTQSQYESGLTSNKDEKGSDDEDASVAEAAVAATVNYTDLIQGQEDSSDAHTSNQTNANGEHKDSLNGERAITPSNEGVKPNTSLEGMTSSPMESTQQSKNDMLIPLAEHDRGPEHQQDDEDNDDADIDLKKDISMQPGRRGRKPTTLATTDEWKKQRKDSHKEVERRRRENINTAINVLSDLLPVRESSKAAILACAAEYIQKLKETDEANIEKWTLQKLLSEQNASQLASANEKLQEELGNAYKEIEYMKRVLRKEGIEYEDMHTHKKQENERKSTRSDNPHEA
Method: protein-binding microarray
Form: double-stranded DNA, one strand shown
Medium: in vitro
Tested at: 0.8 µM
Setting: whole 60-bp probe, no competitor
Direction: higher = stronger binding
Constant ends, left off below: … GTCTTGATTCGCTTGACGCTGCTG
With `GAACAATTTTTTTTACGCATGCAAGATATATGTTAG` the fluorescence intensity was 623 a.u.
The fluorescence intensity of `GAAAAGAGCATGCATCACCCCATACGATCCCCGTAG` is reported as 512 a.u.
`TGTACGAAGCTATGAAACGTGGATATAGTAGTTAGG` has a fluorescence intensity of 518 a.u.
The fluorescence intensity of `GAATGGACTAAAATTCACATGAAATTCTCCTAATAG` is reported as 543 a.u.
The fluorescence intensity of `CCTAACTACTATATAATCGTGGTATAGCTTCGTACA` is reported as 519 a.u.
The fluorescence intensity of `CTAACCACCTCTTGTCACATGACCATTTTTGTTTTC` is reported as 9030 a.u.
`TGTACGAAGCTATTTGATGTGATTATAGTAGTTAGG` has a fluorescence intensity of 498 a.u.

Block 3
Target: Histone acetyltransferase KAT6A, winged helix 1, GST fusion (KAT6A, Homo sapiens, UniProt Q92794, residues 1-85)
Method: protein binding microarray
Form: double-stranded DNA, one strand shown
Medium: in vitro
Tested at: not given
Setting: 8-mer, flanks averaged, mean of 2 arrays, mostly near background
Reference: not given
Direction: higher = stronger binding
Residues (chain): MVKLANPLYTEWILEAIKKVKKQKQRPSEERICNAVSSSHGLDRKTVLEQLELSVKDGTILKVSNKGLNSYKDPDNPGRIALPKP
`ACGAGCTG` gave an E-score of -0.162.
With `CAGGGACA` the E-score was -0.221.
The E-score of `CCGGTACG` is reported as 0.301.
`GCGACATA` gave an E-score of 0.106.
The E-score of `TAGTCATA` is reported as -0.0966.
`TAGCGACA` has an E-score of 0.00305.
`GAAAGTAA` has an E-score of -0.0551.
For `CTGCAAAA`, the E-score was -0.0796.

Further values, each from its own experiment
The fold induction of `PhoQ, residues 284 288 289 292 302 303 TAVSDG` is reported as 2.82 (PhoP, residues 12 14 15 18 19 NQGLL (Escherichia coli, UniProt P23836); Sort-seq, refers to: YFP reporter; E. coli; PhoQ-PhoP variant library, added: 10 µM Mg2+; reference: high Mg2+ state, higher = stronger signaling).

Some of these lines once more (block 2):
`TGTACGAAGCTATGAAACGTGGATATAGTAGTTAGG` has a fluorescence intensity of 518 a.u.
The fluorescence intensity of `GAATGGACTAAAATTCACATGAAATTCTCCTAATAG` is reported as 543 a.u.
